{"data": "Assay results collected from several papers", "note": "Each numbered part is a random draw from the data of one study; scales do not carry over between parts."}
{"data": "Sample 1", "target": "RNA binding protein fox-1 homolog 2, RRM domain, GST-SBP tag (RBFOX2, Homo sapiens, UniProt O43251-10, residues 100-194)", "method": "RNA Bind-n-Seq", "molecule type": "RNA", "sample": "in vitro", "tested at": "365 nM", "setting": "natural RNA segment, single round, ends assumed", "relative to": "no-protein control", "direction": "higher = stronger binding"}
{"Sequence": "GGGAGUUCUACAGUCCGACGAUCAACAUCCAGCUUUUUUCCUGCCUCCCUCUGAAUUCUCCAGGAUCUGCUUCACCCUCACCACCACCACUUCCAAGGAUCAAAGCUGUCUACAGCUCCAUCAAAACCUUUCAUGGAAUUCUCGGGUGCCAA", "RBNS enrichment (R)": 0.772}
{"Sequence": "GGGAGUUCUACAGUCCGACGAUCCAUUGCCUGUGGCCUCUGUCACCCUGGAGCAAAGCCAGACCUUGGAACCCAAACUACUUUAGUCCCUAGAAAAGUUUCUGCUCAGAACUGAGGAUGGAAAGAGCCGUAAUUGGAAUUCUCGGGUGCCAA", "RBNS enrichment (R)": 0.361}
{"Sequence": "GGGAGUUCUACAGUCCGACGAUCUUCUGAGCCUUGAAAUUGAGGAGGUUAAAAGGAAGAGCCUUAAGAUUUUGAUUUAUGUCAAAUCCUAAUUCUAUCAUUCAGUCUUGUUUGGAGUUCUGAACCCAUGAUGUUGGAAUUCUCGGGUGCCAA", "RBNS enrichment (R)": 0.595}
{"Sequence": "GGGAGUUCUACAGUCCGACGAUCCUUGAAGAAGUGAAGGCCAACUGUGUGCUCGCCCAACAUUUGCAACCAGGAGGCUUCGAAAAGCAGCGUCUCUGGCAGUCAAGAUAAAAAAGUUGAUAUUGUGUUUUGUGUGGAAUUCUCGGGUGCCAA", "RBNS enrichment (R)": 1.09}
{"Sequence": "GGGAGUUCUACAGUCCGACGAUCUCCUUGCACCUGCAUCCGUAGUUCCCUGAAAACCCAGAGAGGAAUCAGACUUCACACUGCAAGAGCCUUGGUGUCCACCUGGCCCCAUGUCUCUCAGAAUUCUUCAGGUGUGGAAUUCUCGGGUGCCAA", "RBNS enrichment (R)": 0.787}
{"data": "Sample 2", "target": "Interferon regulatory factor 5, full length, phosphomimetic (IRF5, Homo sapiens, UniProt Q13568-2, residues 1-514, S451D/S453D/S456D/S462D)", "method": "protein-binding microarray", "molecule type": "double-stranded DNA, one strand shown", "sample": "in vitro", "tested at": "940 nM top", "setting": "60-bp whole probe", "together with": "salmon DNA 0.4 mg/ml", "relative to": "random background probes", "direction": "higher = stronger binding", "constant ends, left off below": "GCCTAGCAC … GTCTTGATTCGCTTGACGCTGCTG"}
{"Sequence": "AATTCTTTGCTCATTTTTCAGGTGCTA", "fitted relative affinity [z-score]": 0.732}
{"Sequence": "TTAGGGCTGCTTCTCCTTTAGTGCTAG", "fitted relative affinity [z-score]": -0.295}
{"Sequence": "TCATGGCTCCCTATAAAACTGTGCTAG", "fitted relative affinity [z-score]": -0.0353}
{"Sequence": "CTTTCCTTTGCTTTCTCCCAGTGCTAG", "fitted relative affinity [z-score]": 2.49}
{"Sequence": "GACGGTATCGGTTTCGGGAAGTGCTAG", "fitted relative affinity [z-score]": 9.96}
{"Sequence": "GAATGTGTCTTAAATAGGGCAGTGCTA", "fitted relative affinity [z-score]": -0.288}
{"Sequence": "GACGGACTGGGGACTAGGGACGTGCTA", "fitted relative affinity [z-score]": -0.261}
{"data": "Sample 3", "target": "Ras GTPase-activating protein-binding protein 1, C-terminal RGG region (G3BP1, Homo sapiens, UniProt Q13283)", "method": "RNA Bind-n-Seq", "molecule type": "RNA", "sample": "in vitro", "tested at": "1 µM", "setting": "whole 134-nt RNA, ends assumed", "together with": "150 mM KCl", "relative to": "input library", "direction": "higher = stronger binding", "UniProt Q13283, sequence (whole entry, looked up)": "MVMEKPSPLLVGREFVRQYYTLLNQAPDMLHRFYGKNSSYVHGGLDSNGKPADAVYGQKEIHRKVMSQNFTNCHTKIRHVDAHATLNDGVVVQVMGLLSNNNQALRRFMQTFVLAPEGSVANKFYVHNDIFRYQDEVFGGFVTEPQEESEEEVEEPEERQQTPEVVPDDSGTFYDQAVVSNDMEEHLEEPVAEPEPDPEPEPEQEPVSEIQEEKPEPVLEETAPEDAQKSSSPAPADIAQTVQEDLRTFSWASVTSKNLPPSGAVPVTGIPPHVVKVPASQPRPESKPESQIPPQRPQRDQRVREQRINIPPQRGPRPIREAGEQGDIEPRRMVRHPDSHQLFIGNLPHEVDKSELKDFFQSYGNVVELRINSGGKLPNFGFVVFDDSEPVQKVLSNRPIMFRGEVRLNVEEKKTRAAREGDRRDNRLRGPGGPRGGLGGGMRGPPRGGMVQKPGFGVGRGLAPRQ"}
{"Sequence": "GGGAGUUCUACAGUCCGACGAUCGCAGGAAGUAAAAACAAAUGGAAAUGCUUCGGAUAGUUGCAGGGGUGGGGGUUGCUAAGGAAAGGGUGGGAUGGGAGUGGGUAAAGAGUUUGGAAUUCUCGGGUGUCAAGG", "log2 enrichment": 0.543}
{"Sequence": "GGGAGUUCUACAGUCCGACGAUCUGGACAUGGAUUUUCAAGCCUACUUAGCUUCCUCUAGUGAAGAUGAAGAGGAGAUAGAAGAGGAGCUACAAGGUAUUGUUAAUCUUUCAGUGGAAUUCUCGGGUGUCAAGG", "log2 enrichment": -1.41}
{"Sequence": "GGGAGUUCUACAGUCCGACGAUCAGUCCUGUGCUACACAUCGUAUGUACCGAAUCGGUUUUUGGUUUUUUUGGUUUUUGGAAAGUAUUAUGUUACGCCGUUCGGAUCUGCACUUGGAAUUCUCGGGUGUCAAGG", "log2 enrichment": -1.68}
{"Sequence": "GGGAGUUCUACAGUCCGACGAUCACCAUGCAGGUGGGCAUCUUUGGGAAGUGGGGCAAGGGGGGGAUAGGGAGGGGGGUAACACUAUGGGAACAGGUGGUCCCAGGUCGUUUCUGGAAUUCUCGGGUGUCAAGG", "log2 enrichment": 2.15}
{"Sequence": "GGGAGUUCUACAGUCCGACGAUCUAACUUUAGAGGUGGAUCUGAUGGAUAUGGCAGUGGACGUGGAUUUGGGGAUGGCUAUAAUGGGUAUGGAGGAGGACCUGGAGGUGGCAAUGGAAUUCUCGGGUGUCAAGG", "log2 enrichment": -1.26}
{"Sequence": "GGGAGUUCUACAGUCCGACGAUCUCCUGUGCUACACAUCGUAUGUACCGAAUCGGGGUGGGGUUUUUUUGGGGAAAAAGGGGAAAGUAUUAUGUUACGCCGUUCGGAUCUGCAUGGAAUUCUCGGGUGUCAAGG", "log2 enrichment": 0.98}
{"Sequence": "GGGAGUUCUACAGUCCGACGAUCCCUCAAGUCCUGUGCUACACAUCGUAUGUACCGAAUCGGAAGGGAAGGGAAGGAAAGUAUUAUGUUACGCCGUUCGGAUCUGCACUUCCAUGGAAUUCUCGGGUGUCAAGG", "log2 enrichment": -1.45}
{"Sequence": "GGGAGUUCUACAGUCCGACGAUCAAGUCCUGUGCUACACAUCGUAUGUACCGAAUCGGUUUUUGGAAAAAAAGGUUUGGAAAGUAUUAUGUUACGCCGUUCGGAUCUGCACUUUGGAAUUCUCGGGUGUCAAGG", "log2 enrichment": -2.22}
{"data": "Further values, each from its own experiment"}
{"Molecule": "PhoQ, residues 284 288 289 292 302 303 NLMGRA", "target": "PhoP, residues 12 14 15 18 19 LHHVQ (Escherichia coli, UniProt P23836)", "assay": "Sort-seq, refers to: YFP reporter", "test system": "E. coli", "conditions": "PhoQ-PhoP variant library, together with: 10 µM Mg2+", "how to read": "relative to: high Mg2+ state, higher = stronger signaling", "measurement": "fold induction", "value": 2.59}
{"note": "For quick reference, copied from above (sample 3):"}
{"Sequence": "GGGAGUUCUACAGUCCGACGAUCACCAUGCAGGUGGGCAUCUUUGGGAAGUGGGGCAAGGGGGGGAUAGGGAGGGGGGUAACACUAUGGGAACAGGUGGUCCCAGGUCGUUUCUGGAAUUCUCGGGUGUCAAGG", "log2 enrichment": 2.15}
{"Sequence": "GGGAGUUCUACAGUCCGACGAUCUAACUUUAGAGGUGGAUCUGAUGGAUAUGGCAGUGGACGUGGAUUUGGGGAUGGCUAUAAUGGGUAUGGAGGAGGACCUGGAGGUGGCAAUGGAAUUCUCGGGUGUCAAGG", "log2 enrichment": -1.26}
